Assay results from different studies.
Each line is one published result; not all experiments were run side by side.
Target: Casein kinase I isoform gamma-1 (CSNK1G1, Homo sapiens, UniProt Q9HCP0)
UniProt Q9HCP0, sequence (whole entry, looked up): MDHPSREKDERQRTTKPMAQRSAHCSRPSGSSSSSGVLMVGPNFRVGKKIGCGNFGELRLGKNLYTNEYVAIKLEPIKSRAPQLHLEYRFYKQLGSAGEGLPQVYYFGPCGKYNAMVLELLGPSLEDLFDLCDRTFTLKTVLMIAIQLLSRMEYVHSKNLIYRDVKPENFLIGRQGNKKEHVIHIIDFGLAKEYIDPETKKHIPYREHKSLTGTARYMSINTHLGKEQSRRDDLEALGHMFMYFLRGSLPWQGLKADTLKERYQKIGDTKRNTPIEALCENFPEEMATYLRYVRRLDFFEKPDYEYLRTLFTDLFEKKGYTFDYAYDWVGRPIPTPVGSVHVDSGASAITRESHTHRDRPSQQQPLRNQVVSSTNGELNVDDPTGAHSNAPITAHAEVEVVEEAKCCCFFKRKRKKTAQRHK

For `C=CC(=O)N1CCC(C(=O)NCC(=O)N2CCN(c3nc(-c4cnc(N)nc4C(F)F)nc(N4CCOCC4)n3)CC2)CC1`, the remaining binding was 99% (KINOMEscan; 1 µM).
`C[C@@H](c1ccc(-n2cnc3c(N)ncnc32)cc1)N1CCc2nn(C)c(Cc3ccccc3)c2C1=O` has a remaining binding of 95% (KINOMEscan; 0.1 µM; reference: DMSO control).
With `CCCOc1ccc(OC)c(F)c1C(=O)c1ccc(C(=O)N[C@@H]2CNC[C@H]2NC(=O)c2ccc3[nH]ncc3c2)cc1` the remaining activity was 55% (enzyme activity; 10 µM).
With `Cc1cc(Nc2cc(N3CCN(C)CC3)nc(Sc3ccc(NC(=O)C4CC4)cc3)n2)[nH]n1` the remaining activity was 105% (kinase activity, KinaseProfiler; 0.03 µM, species human; reference: control).
`COc1cc(F)ccc1-c1ncnc(Nc2cccc(C[S@](C)(=N)=O)c2)n1` has a remaining activity of 99% (kinase activity; 10 µM, together with: 10 µM ATP).
For `C=CC(=O)N1CCC(COCC(=O)N2CCN(c3nc(-c4cnc(N)nc4C(F)F)nc(N4CCOC[C@@H]4C)n3)CC2)CC1`, the remaining binding was 100% (KINOMEscan; 1 µM; reference: DMSO control).
`COc1cc(-c2cncc3c2CN(C)Cc2cc(N4CCNCC4)ccc2-3)cc(OC)c1OC` gave a remaining activity of 96% (kinase activity; 1 µM, human enzyme, together with: ATP 10 µM; reference: DMSO control).
`CCN(CC)c1ccc(C2=NNC(=O)CC2C)cc1[N+](=O)[O-]` (stereo not shown) gave a remaining activity of 107% (enzyme activity, inhibitor; 10 µM; reference: vehicle).
Under “percent of control”, `C1=C/COCc2cc(ccc2OCCN2CCCC2)Nc2nccc(n2)-c2cccc(c2)COC/1` is recorded as 72% (concentration not given).
With `O=C(NC1CCC1)c1ccc2nc(-c3cccc(NS(=O)(=O)NCCN4CCCCC4)c3)cn2c1` the remaining activity was 95% (enzyme activity; 10 µM).

For quick reference, copied from above:
For `C=CC(=O)N1CCC(C(=O)NCC(=O)N2CCN(c3nc(-c4cnc(N)nc4C(F)F)nc(N4CCOCC4)n3)CC2)CC1`, the remaining binding was 99% (KINOMEscan; 1 µM).
`CCN(CC)c1ccc(C2=NNC(=O)CC2C)cc1[N+](=O)[O-]` (stereo not shown) gave a remaining activity of 107% (enzyme activity, inhibitor; 10 µM; reference: vehicle).
